Experimental data pooled from the literature.
Numbers after ± are the reported error.
Organism: Salmonella typhimurium

SMILES	assay	system	setting	scale	quantity	result
Cc1cc(C(=O)NC(C)(C)COc2cccc3c2C(N)=NS(=O)(=O)N3)cc(C)n1	Ames test, confirmatory	TA98	5000 µg/plate, added: rat liver S9	reference: solvent control	revertant ratio	0.8
N#C[C@@]1(n2ccc(N)nc2=O)O[C@H](CO)[C@@H](O)[C@H]1O		TA98	2.5 µM, without S9		viability	93%
O=[N+]([O-])c1ccc(N2CCC(NCCC(O)c3ccc(F)c4ccccc34)CC2)c(C(F)(F)F)c1 (stereo not drawn)	genotoxicity, SOS/umu test	TA1535/pSK1002	0.002 mg/mL, 4 h, without S9, full range		induction factor	0.52
CC(C)N(C)N=O	mutagenicity, Ames plate incorporation	TA1537	1500 µg/plate, 3 d, without S9, methanol		revertant colonies per plate	6 ± 2
O=[N+]([O-])c1ccc(N2CCN(CCC(O)c3ccc(F)cc3)CC2)c(C(F)(F)F)c1 (stereo not drawn)	genotoxicity, SOS/umu test	TA1535/pSK1002	0.125 mg/mL, 4 h, with S9, lower range		induction factor	0.3
CN(CC(C)(C)C)N=O	mutagenicity, Ames plate incorporation	TA1535	5000 µg/plate, without S9, methanol		revertant colonies per plate	45 ± 10
CC(=O)N1CCC(C(=O)N2CCN3C(=O)c4cc(-c5ccccc5)ccc4NC(=O)C3C2)CC1 (stereo not drawn)		TA100	158 µg/plate, without S9		revertants per plate	93
O=[N+]([O-])c1ccc(NC2CCNCC2)c(C(F)(F)F)c1	SOS/umu test	TA1535/pSK1002, TGA medium	1 mg/mL, 4 h, added: 10% rat liver S9		survival	69.5%
CNC(=O)c1c(N(C)N=O)ncn1C	mutagenicity, Ames plate incorporation	TA98	50 µg/plate, without S9, methanol		revertant colonies per plate	25 ± 4
OC(CCN1CC=C(c2ccc(F)cc2)CC1)c1ccc(F)c2ccccc12 (stereo not drawn)	genotoxicity, SOS/umu test	TA1535/pSK1002	0.004 mg/mL, 4 h, without S9, lower range		induction factor	0.7
O=NN1CCN(C2CCCC2)CC1	mutagenicity, Ames plate incorporation	TA100	5000 µg/plate, 3 d, without S9, methanol		revertant colonies per plate	135 ± 5
COc1cccc(-c2n[nH]c(SCc3ccccn3)n2)c1OC	Ames test, plate incorporation	TA1537	0.25 mg/plate, with rat liver S9		revertant colonies per plate	18

A few entries again:
SMILES	assay	system	setting	scale	quantity	result
CC(=O)N1CCC(C(=O)N2CCN3C(=O)c4cc(-c5ccccc5)ccc4NC(=O)C3C2)CC1 (stereo not drawn)		TA100	158 µg/plate, without S9		revertants per plate	93
